# Measurements from different studies.
# Each line is one published result; not all experiments were run side by side.
# Target: Non-receptor tyrosine-protein kinase TNK1 (TNK1, Homo sapiens, UniProt Q13470)
SMILES,assay,test system,setting,scale,quantity,result
Cc1ccc(C(=O)Nc2ccc(CN3CCN(C)CC3)c(C(F)(F)F)c2)cc1C#Cc1cnc2cccnn12,"target engagement, NanoBRET",human cells,,,upper asymptote,96
COc1cc(Nc2nccc(-c3cnn4nc(OC)ccc34)n2)cc(C(F)(F)F)c1,"binding, competition with immobilised ligand",,1 µM,,remaining binding,89%
Nc1ncc(-c2cc(-c3cnn(CC(F)(F)F)c3)ncc2F)nc1C(=O)NC1CNCC(F)C1 (stereo not shown),enzyme activity,,1 µM,relative to: DMSO control,remaining activity,99.5%
CCn1cc(C(=O)O)c(=O)c2c(N)c(F)c(NC3CCCCC3)cc21,kinase activity,,"0.1 µM, together with: ATP at Km",,inhibition,-6.1%
CCN1CCN(Cc2ccc(C(=O)Nc3ccc(C)c(NCc4cnc5[nH]ccc5c4OC)c3)cc2C(F)(F)F)CC1,"binding, competition with immobilised ligand",,1 µM,,remaining binding,39%
COC(=O)[C@@]1(C)C=C(C(=O)Nc2cccc(C(=O)Nc3ccc(Nc4nccc(-c5cccnc5)n4)c(C)c3)c2)C(=O)CC1,"binding, competition with immobilised ligand",,1 µM,,remaining binding,69%
CC(C)=CC1OC(C)(C)C2C=C3C(=O)C(Cl)=CC(O)C3C3C(O)C4OC4C(=O)C132 (stereo not shown),"cell-free assay, competition with immobilised ligand",,10 µM,,remaining binding,100%
C=CC(=O)N1CCCC(n2c(=O)c3ncccc3n(Cc3ccc(Oc4ccccc4)cc3)c2=O)C1 (stereo not shown),"cell-free assay, competition with immobilised ligand",,1 µM,,remaining binding,94%
CN1CCN(Cc2ccc(-c3ccc(CO[C@H]4CCC[C@@H]4NC(=O)c4cc(-c5cnn(C)c5)cnc4N)cc3)cc2)CC1,"enzyme activity, inhibitor",,0.1 µM,,inhibition,7%
C=CC(=O)Nc1cc(-c2nn(C3CCN(CCNC(=O)[C@H](C)CCC45CC6CC(CC(C6)C4)C5)CC3)c3ncnc(N)c23)ccc1Oc1ccccc1,"inhibitor, KiNativ profiling",biochemical,2 µM,,inhibition,-2.2%
C=CC(=O)N1Cc2nc(-c3cc(-c4cc(Cl)cnc4Cl)c(F)cc3F)n(-c3ccncn3)c2C1,"cell-free assay, inhibitor",,1 µM,,inhibition,2.7%
Cc1cnc2nc1Nc1cccc(c1)COC/C=C/COCc1cc(ccc1OCCN1CCOCC1)N2,"binding, competition with immobilised ligand",,0.1 µM,,remaining binding,35%
NC(=O)C[C@H]1CCc2sc3ncnc(O[C@H]4CC[C@H](N5CCOCC5)CC4)c3c21,"enzyme activity, inhibitor",,10 µM,,inhibition,10%

# Excerpt of the above:
SMILES,assay,test system,setting,scale,quantity,result
CCN1CCN(Cc2ccc(C(=O)Nc3ccc(C)c(NCc4cnc5[nH]ccc5c4OC)c3)cc2C(F)(F)F)CC1,"binding, competition with immobilised ligand",,1 µM,,remaining binding,39%
COC(=O)[C@@]1(C)C=C(C(=O)Nc2cccc(C(=O)Nc3ccc(Nc4nccc(-c5cccnc5)n4)c(C)c3)c2)C(=O)CC1,"binding, competition with immobilised ligand",,1 µM,,remaining binding,69%
